Measured values gathered from unrelated publications.
Numbered parts are unrelated; each lists some results of a single study.

Sample 1
Target: Ras GTPase-activating protein-binding protein 1, full length (G3BP1, Homo sapiens, UniProt Q13283)
UniProt Q13283, sequence (whole entry, looked up): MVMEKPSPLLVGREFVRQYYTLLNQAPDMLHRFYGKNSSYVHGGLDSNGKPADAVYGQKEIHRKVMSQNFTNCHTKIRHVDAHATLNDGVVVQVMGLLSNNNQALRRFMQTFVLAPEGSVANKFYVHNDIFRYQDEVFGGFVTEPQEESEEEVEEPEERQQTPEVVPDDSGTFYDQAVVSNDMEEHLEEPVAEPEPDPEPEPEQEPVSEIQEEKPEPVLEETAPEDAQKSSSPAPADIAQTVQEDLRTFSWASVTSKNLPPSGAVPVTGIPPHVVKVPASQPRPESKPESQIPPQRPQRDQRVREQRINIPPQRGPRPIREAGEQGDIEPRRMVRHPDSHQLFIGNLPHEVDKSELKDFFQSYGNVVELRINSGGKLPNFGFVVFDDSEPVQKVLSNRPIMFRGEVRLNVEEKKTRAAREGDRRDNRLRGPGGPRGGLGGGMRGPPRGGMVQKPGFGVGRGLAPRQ
Technique: RNA Bind-n-Seq
Form: RNA
Sample: in vitro
Concentration: 200 nM
Setting: whole 134-nt RNA, ends assumed
Added: 150 mM LiCl
Reference: input library
Direction: higher = stronger binding
Endpoint: log2 enrichment
Each molecule: 7-deaza-guanosine replaces G
Constant ends, left off below: GGGAGUUCUACAGUCCGACGAUC … UGGAAUUCUCGGGUGUCAAGG
UGCAGAUUGAUGAGUAUGAUCACUCCAAGCCCAUCCAGGGGCAACAGAAGAAGCCCUUUGAGGUGCACUGGAGGAAGCACACCCUGUCCU: -1.8
GCAGAAAGUAAAAACAAAUGGAAAUGCUUCGGAUAGUGGCAGGGGUGGGGGUUGCUAAGGAAAGGGUGGGAUGGGAGUGGGUAAAGAGUU: 0.127
UAACUUUAGAGGAGGAUCUGAUGGAUAUGGCAGUGGACGUGGAUUUGGAGAUGGCUAUAAUGGGUAUGGAGGAGGACCUGGAGGUGGCAA: -0.213
CAAGUCCUGUGCUACACAUCGUAUGUACCGAAUCGGAAAGGGAAAGGGAAAGGGGAAAGUAUUAUGUUACGCCGUUCGGAUCUGCACUUC: -0.153
CACAGACAACAAACACCCACACAGACACAGAGGGAAGGGGUUGGGAUGGGGACAGGGUGCACAGCAGGGCGGGGUAGGACCCCAGCCCCU: 0.337
UGGGAGGUGGAUUUUGUUUAUUUUUUUAGCUGAUUUCCAGGGGUGGGAAUUUUUUUUUAAUAUGUGUCAUGAAUAAAGUUGUUUUUGAAA: -0.0452
GUCCUGUGCUACACAUCGUAUGUACCGAAUCGGGGUGGGGUUUUUUUGGGGAAAGGGGAAAGUAUUAUGUUACGCCGUUCGGAUCUGCAC: 0.406
UUCACUCUUUGAAGGAACGUGGUACUUAGUUAGGGUGGAUGAAAAGCACAGAAGAACUUACGCUCGGCGUCCCACUCCAAAUGAUGACAC: 0.149
UCAAGUCCUGUGCUACACAUCGUAUGUACCGAAUCGGGAAAGGGUUUGGGAGGGAAAGUAUUAUGUUACGCCGUUCGGAUCUGCACUUCC: -0.262
UCCUGUGCUACACAUCGUAUGUACCGAAUCGGUUUUUUUGGGUUUUUUUGGUUUUUUUGGAAAGUAUUAUGUUACGCCGUUCGGAUCUGC: 0.493
CACAGACAACACGCACCCUCACAGACACAGAGGGAAGGGGUUGGGAUGGGGACAGGGUGCACAGCAGGGCGGGGUAGGACCCCAGCCCCU: -1.04

Sample 2
Target: Histone acetyltransferase KAT6A, winged helix 1, GST fusion (KAT6A, Homo sapiens, UniProt Q92794, residues 1-85)
Technique: protein binding microarray
Form: double-stranded DNA, one strand shown
Sample: in vitro
Concentration: not given
Setting: 8-mer, flanks averaged, mean of 2 arrays, mostly near background
Reference: not given
Direction: higher = stronger binding
Endpoint: E-score
Residues (chain): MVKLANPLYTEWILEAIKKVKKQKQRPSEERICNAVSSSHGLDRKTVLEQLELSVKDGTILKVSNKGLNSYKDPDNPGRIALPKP
ATTACTCC: -0.122
ACCATAGA: -0.161
CATCCAAC: -0.103
CCCTCAGG: -0.0889
GGCGCCCC: 0.351
ACCATCCG: -0.0116
ACTTGGCA: -0.298
GAACTTGA: -0.0642
AGAGTCGA: -0.197
AGTTCAAA: -0.109
ACAATCAG: -0.111
ATCGGTGC: -0.0432
GTTATTCA: -0.208
ATCCCGAT: -0.164
GCGCCCGC: 0.45
GACCGCCA: 0.0991
GCAGCCTA: -0.163
GCGACGAC: 0.138
ACAAATTG: -0.175
CCGATCTC: 0.0258
AACCTTGC: -0.0195
AGACCAGA: -0.25
CCTCGCAG: -0.0733
ATCTTGAG: -0.165

Sample 3
Target: RNA binding protein fox-1 homolog 2, RRM domain, GST-SBP tag (RBFOX2, Homo sapiens, UniProt O43251-10, residues 100-194)
Technique: RNA Bind-n-Seq
Form: RNA
Sample: in vitro
Concentration: 365 nM
Setting: natural RNA segment, single round, ends assumed
Reference: no-protein control
Direction: higher = stronger binding
Endpoint: RBNS enrichment (R)
Constant ends, left off below: GGGAGUUCUACAGUCCGACGAUC … UGGAAUUCUCGGGUGCCAA
Construct (chain): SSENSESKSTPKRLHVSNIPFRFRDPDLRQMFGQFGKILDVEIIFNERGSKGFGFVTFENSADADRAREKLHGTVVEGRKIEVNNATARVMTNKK
GGUUCUUCCUGUGUGGUCCAGAACCACGAGCCUGGUAAAGGAACUAUGCAAACACAGGCCCUGACCUCCCCAUGUCUGUUCCUGGUCCUCACAGCCCGACACGCCCUGCU: 0.449
GUUAAUAAGUCAUUAACCGCUCAGUACCAGAUGUGGCAAAUCUCAAGUGAUUGUGGACUCCUGGCUCAUCAACUCAUGCCCUCUUCCAUACCCUCAUGGCUUCACAGUCA: 0.523
GCUGCUUCUGUGUGUCAAGGCUUCAACCAGGUCCCUCUUCCUCUGACUCUGGCACCAUGCCAGCUGACUGCUACCCAGGUCAGAUUGGACUCAUGGUCAAUACCCAGCCA: 0.355
UCUGUUUAGCGAAGAUAGACUAGAGGACACGUUAGAGAUGCCCUUCCCUGCUCCAUCCCUGUGGCACCAUUAUGGUUUUUUGGCUGUUUGUAUAUACGGUUACGUAUUAA: 0.7
GCCAGCCAGUGAUUUUCUUUUAAAUGAAAAUGAUGGGAUGAGAUGUAAUUUUAGAUCGGGAAGAGAGUGUGUGUCUAAUUCUUUUGAGUAUGCCUGUGCCAUCAGAGAAG: 1.53
CACUUUCUCAAGAACAAGAACCUAGAAUGAAUAUCCAAGCACCUCGAGCUAUGCAACCUCUGUUCUUGUAUUUCUUAUGAUCUCUGAUGGGUUCUUCUCGAAAAUGCCAA: 0.655
AAAUGGUCCCAUUGGAGAGUCUCCUAAAUAGACCUUCCAGGCAGAACCGCAAGCUCAAAAUCUUUGUAUAGUUUUGAAAAUUGAGGAGUAGCUUUGUUUGGAAGCCUUUC: 0.351
ACAGAUAACCUGUUGAGCUUGUGCCUUGAUUGUUUUAACAACUAGUGCAAAUCAACCUGAUGAUUUUAAUUGGCAGGGGAUAAUGGUAGCUUUCAAAUCAUUGGAAGGGG: 0.454
CUUUGGCUUACCCCGUGCUCCUGGGUUCUAUGGUGUUUCUAUAAUUAUGAAUAGUGUUGCACUGUAAUCUAUCAUAUAGAGCUAUAUGUAUGGAAAUUUUUGAUCAGUUU: 0.501
AAGAGUGACCAGUGCUGGCCCGACGGAUCGCUGAGAUAUUCUCCCAUAAUGGCAAAAAAUAGGCAGUUUGAUGUGACCUGUUUAGUGUGGCUCUCCUCUUUUGAGCAUGU: 14.5
GCAGAUACCCCAAACAUACUAUGAUAAAAUCAAAUUGUGCUACUUUUGACCCAUGUAAUUUACCUAAAAGUUGUAAUUGCUGACAGAGUACUGCCUUGAAUUUUGGUUUA: 0.471
AGUGUAAGAACUGUACAUUGUGAGCUCUGGUUAUUUUUCUCUUGUACCAUAGAAAAAUGUAUAAAAAUUAUCAAAAAGCUAAUGUGCAGGGAUAUUGCCUUAUUUGUCUG: 0.444

Sample 4
Target: RING finger protein unkempt homolog, zinc fingers 1-6, GST-SBP tag (UNK, Homo sapiens, UniProt Q9C0B0, residues 30-357)
UniProt Q9C0B0, sequence (30-357, looked up): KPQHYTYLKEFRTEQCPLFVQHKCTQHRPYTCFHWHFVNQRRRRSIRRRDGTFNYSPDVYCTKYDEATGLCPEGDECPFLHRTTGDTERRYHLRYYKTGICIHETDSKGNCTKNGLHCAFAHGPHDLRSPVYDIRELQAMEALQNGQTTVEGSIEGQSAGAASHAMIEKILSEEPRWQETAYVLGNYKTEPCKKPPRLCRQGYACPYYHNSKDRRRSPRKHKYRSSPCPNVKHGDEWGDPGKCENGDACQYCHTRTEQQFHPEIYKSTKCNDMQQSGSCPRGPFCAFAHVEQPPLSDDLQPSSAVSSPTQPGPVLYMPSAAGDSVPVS
Technique: RNA Bind-n-Seq
Form: RNA
Sample: in vitro
Concentration: not given
Setting: RNA with constant flanks, human and mouse sites, ends assumed
Reference: input RNA pool
Direction: higher = stronger binding
Endpoint: bound/input enrichment
Constant ends, left off below: GGGAGUUCUACAGUCCGACGAUC … CAACAGAGGAUUGAGCAUCA
AAAGCACAAAGAAAUUUGUUUUCCCUAGAGGAUCAGGGUAGAGUGAGGCAUUUCUAAUUGUCUAUCUCUUCCAAAACCAGGGAGUCCCAGCAGGCAGGAGUCCCAGCAGGCAGGCUUGCU: 0.417 ratio
GCCCUAGGGAUAGACAAUGUCCUCAGGUUCCACUUCAUGUCUCCCCCGCCAGCACAGUCGAUGGUUCAAGCCUUGGAGCUGCUCUAUGCUCUCGGAGGUCUGGACAAAGACUGUCGCCUA: 0.136 ratio
GCAUCCCCAGAUGUCAAAUUAAAUCUUGGUGGAGAUUUUAUCAAAGAAUCUACAGCUACUACAUUUCUGAGACAAAGAGGUUAUGGCUGGCUUCUGGAAGUUGAAGAUGAUGAUCCUGAA: 0.254 ratio
AUUGAGAACAGCUCUCCAAAUAGGAAUAGUAGUAAAAAAAAUAAGCAAAAUGAUAUUUGUAUAGAAAAAACAGAAGUUAAAUCAUGUAAAGUAAAUGCUGCCAACCUUCCAGGUCCUAAA: 172 ratio
GAUCCAGAGGAAGAGGAGGUUGAGAAGGAAGGGAAUGCCACUGUGAGUUUCUCACAGGCCCUGGUAGAGUUCACCAGCAAUGGGAACCUCUUUUCCAGCAUGUCCUGCAGCUCUGACUCU: 0.116 ratio
CAAAUUUUGAUUUUAUUUUGUAUCUUAAUUGCCAUGUCUCUUGUCUGUUCUGUGGGCUCAGCCAUUUGGAAUCGAAGGCAUUCUGGAAAAGACUGGUAUCUCAAUCUAAACUAUGGUGGC: 0.64 ratio
GUCCCUGCCCUGCUGUACCCCGCUCCUUGGAGACCCCCUGUAUCCCUCCCGCAAGGUGGAAUCCGCAGGCUGGAGGCUCCCAGGGGAGGCAAACGCCUGGCCCUGCCCUGCCCCACGCCG: 0.44 ratio
AGCUCACAGUGCCCCUAGUCUGGGUGCCCGCUGUCCCCGACAAAUGUAACCACCUCCCUGCCUAGAAUACACACACGUCCUCCGGUGCAUGCACAACCACCCAGCAUCUUUCUUUGUGAU: 0.632 ratio
CAUUCUCUUAGUGAUGGGCUGGAGGAAGUCCAAAAAGCAGAAAUGAAAGCUUACAUGGAAUUAGUCAACAAUAUGCUGUUGACUGCAGAGCUGUAUCUUCAGUGGUGUGAUGAAGCUACA: 0.157 ratio
GAGACUAAUGUUUAACUUUGAGAUACGUUUUCUGAGAGUUGCUAACCGGUUGGAGAUGAACUUAGAGAAUAGGGUUCACCUUUUUCGUCUGUCAGCGGGUUAUCGAGUGCCCAGUGGUGU: 0.258 ratio
GUAUCCAUGGGGCUUACAAGGAGCAUGCAAGUUGUCCCCUUGGACAAACAGAUCACAAUCAUAGAUAGUCCGAGCUUCAUCGUAUCUCCACUUAAUUCCUCCUCUGCGCUUGCUCUGCGA: 0.39 ratio

For quick reference, copied from above (sample 3):
CACUUUCUCAAGAACAAGAACCUAGAAUGAAUAUCCAAGCACCUCGAGCUAUGCAACCUCUGUUCUUGUAUUUCUUAUGAUCUCUGAUGGGUUCUUCUCGAAAAUGCCAA: 0.655
GCUGCUUCUGUGUGUCAAGGCUUCAACCAGGUCCCUCUUCCUCUGACUCUGGCACCAUGCCAGCUGACUGCUACCCAGGUCAGAUUGGACUCAUGGUCAAUACCCAGCCA: 0.355
GCAGAUACCCCAAACAUACUAUGAUAAAAUCAAAUUGUGCUACUUUUGACCCAUGUAAUUUACCUAAAAGUUGUAAUUGCUGACAGAGUACUGCCUUGAAUUUUGGUUUA: 0.471
UCUGUUUAGCGAAGAUAGACUAGAGGACACGUUAGAGAUGCCCUUCCCUGCUCCAUCCCUGUGGCACCAUUAUGGUUUUUUGGCUGUUUGUAUAUACGGUUACGUAUUAA: 0.7
GCCAGCCAGUGAUUUUCUUUUAAAUGAAAAUGAUGGGAUGAGAUGUAAUUUUAGAUCGGGAAGAGAGUGUGUGUCUAAUUCUUUUGAGUAUGCCUGUGCCAUCAGAGAAG: 1.53
